# Measurements pooled from the literature.
# Protocols differ between the studies behind these lines. ± marks the error that the study gave.
Compound,tested on,assay,test system,setting,scale,endpoint,value
CC[C@H](C)[C@H](NC(=O)[C@H](Cc1ccccc1)NC(=O)[C@@H](NC(=O)[C@@H](NC(=O)[C@H](CC(C)C)NC(=O)[C@H](CCCCN)NC(=O)[C@@H](N)CCCCN)[C@@H](C)CC)[C@@H](C)O)C(=O)N[C@@H](CC(C)C)C(=O)N[C@@H](CCCCN)C(=O)N[C@@H](CCCCN)C(=O)N[C@H](C(=O)N[C@@H](CCCNC(=N)N)C(=O)N[C@@H](CCC(=O)O)C(=O)N[C@@H](CCCCN)C(=O)N[C@@H](CCCCN)C(=O)N[C@@H](CCCCN)C(=O)N[C@@H](CCC(=O)O)C(=O)N[C@@H](CS)C(=O)N[C@@H](CC(C)C)C(=O)N[C@H](C(=O)O)C(C)C)[C@@H](C)O,TTX-sensitive sodium channel,"resurgent sodium current, open-channel blocker, whole-cell patch clamp",mouse hippocampal CA3 neurons,"200 µM intracellular, 22 °C",,time to peak,5 ± 0.3 ms
CC[C@H](C)[C@H](NC(=O)[C@H](C)NC(=O)[C@H](Cc1c[nH]cn1)NC(=O)[C@@H](NC(=O)[C@H](CC(C)C)NC(=O)[C@H](CCCNC(=N)N)NC(=O)[C@H](CCC(N)=O)NC(=O)[C@H](C)NC(=O)[C@H](C)NC(=O)[C@H](C)NC(=O)[C@@H](NC(=O)[C@H](C)NC(=O)[C@H](CCC(N)=O)NC(=O)[C@H](C)NC(=O)CNC(=O)[C@H](CCC(N)=O)NC(=O)[C@H](CC(C)C)NC(=O)[C@H](C)NC(=O)[C@H](CCCNC(=N)N)NC(=O)[C@H](CCC(N)=O)NC(=O)CNC(=O)[C@H](Cc1c[nH]c2ccccc12)NC(=O)[C@H](Cc1c[nH]cn1)NC(=O)[C@H](C)NC(=O)[C@H](CO)NC(=O)[C@H](C)NC(C)=O)C(C)C)C(C)C)C(=O)N[C@@H](C)C(=O)N[C@@H](CC(C)C)C(=O)N[C@@H](CCSC)C(=O)N[C@H](C(=O)N[C@@H](CCC(N)=O)C(=O)N[C@@H](Cc1ccccc1)C(=O)NCC(=O)N[C@@H](CCCNC(=N)N)C(N)=O)[C@@H](C)O,,"membrane partitioning, far-UV CD",POPC:POPG 8:2 SUV,,,Kd,75000 ± 11000 nM
CC[C@H](C)[C@H](NC(=O)[C@H](CCCCN)NC(=O)[C@H](CCCCN)NC(=O)[C@H](CC(C)C)NC(=O)[C@H](Cc1c[nH]c2ccccc12)NC(=O)CN)C(=O)NCC(=O)N[C@@H](CCCCN)C(=O)N[C@@H](CCCCN)C(=O)N[C@H](C(=O)N[C@@H](CCC(=O)O)C(=O)N[C@@H](CCCNC(=N)N)C(=O)N[C@H](C(=O)NCC(=O)N[C@@H](CCC(N)=O)C(=O)N[C@@H](Cc1c[nH]cn1)C(=O)N[C@H](C(=O)N[C@@H](CCCNC(=N)N)C(=O)N[C@@H](CC(=O)O)C(=O)N[C@@H](C)C(=O)N[C@H](C(=O)N[C@H](C(=O)N[C@@H](CCC(N)=O)C(=O)N[C@H](C(=O)N[C@H](C(=O)NCC(=O)N[C@H](C(=O)N[C@@H](C)C(=O)N[C@@H](CCC(N)=O)C(=O)N[C@@H](CCC(N)=O)C(=O)N[C@@H](C)C(=O)N[C@@H](C)C(=O)N[C@@H](CC(N)=O)C(=O)N[C@H](C(=O)N[C@@H](C)C(=O)N[C@@H](C)C(=O)N[C@H](C(=O)N[C@@H](CC(C)C)C(=O)N[C@@H](CCCCN)C(N)=O)[C@@H](C)O)C(C)C)C(C)C)[C@@H](C)CC)[C@@H](C)O)[C@@H](C)CC)[C@@H](C)O)[C@@H](C)O)C(C)C)[C@@H](C)CC,Pseudomonas aeruginosa,broth microdilution,"ATCC 27853, CAMHB",,,MIC,64 µg/mL
CCCCCCCCCCCCCCCC(=O)N[C@@H](CCC(=O)NCCOCCOCCC(=O)NCCOCCOCCC(=O)NCCCC[C@H](NC(=O)[C@H](CC(=O)O)NC(=O)[C@H](CC(C)C)NC(=O)[C@H](Cc1ccc(O)cc1)NC(=O)[C@H](CCCCN)NC(=O)[C@H](CO)NC(=O)[C@H](Cc1ccc(O)cc1)NC(=O)[C@H](CC(=O)O)NC(=O)[C@H](CO)NC(=O)[C@@H](NC(=O)[C@H](Cc1ccccc1)NC(=O)[C@@H](NC(=O)CNC(=O)[C@H](CCC(N)=O)NC(=O)[C@@H](CO)NC(=O)[C@@H](N)Cc1c[nH]cn1)[C@@H](C)O)[C@@H](C)O)C(=O)N[C@@H](CCCNC(=N)N)C(=O)N[C@@H](CCCNC(=N)N)C(=O)N[C@@H](C)C(=O)N[C@@H](CCC(N)=O)C(=O)N[C@@H](CC(=O)O)C(=O)N[C@@H](Cc1ccccc1)C(=O)N[C@H](C(=O)N[C@@H](CCC(N)=O)C(=O)N[C@@H](Cc1c[nH]c2ccccc12)C(=O)N[C@@H](CC(C)C)C(=O)N[C@@H](CC(C)C)C(=O)N[C@@H](CC(N)=O)C(=O)N[C@H](C(=O)NCC(=O)NCC(=O)N1CCC[C@H]1C(=O)N[C@@H](CO)C(=O)N[C@@H](CO)C(=O)NCC(=O)N[C@@H](C)C(=O)N1CCC[C@H]1C(=O)N1CCC[C@H]1C(=O)N1CCC[C@H]1C(=O)N[C@@H](CO)C(N)=O)[C@@H](C)O)C(C)C)C(=O)O,,Western blot,"C57BL/6J mouse CCl4 model, liver",dose not given,,JNK phosphorylation and cleaved caspase-3,decreased
Nc1ncnc2c1ncn2C1CCC(OC(C(=O)O)P(=O)(O)O)C1 (racemic),HIV-1 reverse transcriptase K70E,"enzyme activity, inhibitor",,"added: poly(rU)·oligo(dA), [3H]dATP",baseline: mutant over wild type,fold resistance,3 fold
CCCCCCCCCCCCCCCC(=O)N[C@@H](CCC(=O)NCCCC[C@H](NC(=O)[C@H](CC(=O)O)NC(=O)[C@H](CO)NC(=O)[C@@H](NC(=O)[C@H](Cc1ccccc1)NC(=O)[C@@H](NC(=O)CNC(=O)[C@H](CCC(N)=O)NC(=O)[C@H](C)NC(=O)[C@@H](Cc1ccc(O)cc1)NC(C)=O)[C@@H](C)O)[C@@H](C)O)C(=O)N[C@@H](CO)C(=O)N[C@@H](CCCCN)C(=O)N[C@@H](Cc1ccc(O)cc1)C(=O)N[C@@H](CC(C)C)C(=O)N[C@@H](CC(=O)O)C(=O)N[C@@H](CCC(=O)O)C(=O)N[C@@H](CCCNC(=N)N)C(=O)N[C@@H](C)C(=O)N[C@@H](C)C(=O)N[C@@H](CCC(N)=O)C(=O)N[C@@H](CC(=O)O)C(=O)N[C@@H](Cc1ccccc1)C(=O)N[C@H](C(=O)N[C@@H](CCC(N)=O)C(=O)N[C@@H](Cc1c[nH]c2ccccc12)C(=O)N[C@@H](CC(C)C)C(=O)N[C@@H](CC(C)C)C(=O)N[C@@H](CCC(=O)O)C(=O)NCC(=O)NCC(=O)N1CCC[C@H]1C(=O)N[C@@H](CO)C(=O)N[C@@H](CO)C(=O)NCC(=O)N[C@@H](C)C(=O)N1CCC[C@H]1C(=O)N1CCC[C@H]1C(=O)N1CCC[C@H]1C(=O)N[C@@H](CO)C(N)=O)C(C)C)C(=O)O,,,"cynomolgus monkey, plasma","intravenous, 0.0031 mg/kg",,AUC(0-inf),365 to 505 ng·h/mL
COCCCCCCn1ccn2cc(C(=O)NCc3ccc(F)cc3F)c(=O)c(O)c2c1=O,human immunodeficiency virus 1,single-round vector infection,integrase G140S/Q148H,,,EC50,253 ± 23.4 nM
C[C@@H]1Cc2ccc(C(=O)N[C@@H](Cc3ccccc3)C(=O)O)c(O)c2C(=O)O1,HK-2,cell growth or viability,,,,IC50,37900 nM
CC[C@H](C)[C@H](NC(=O)[C@H](CCCN)NC(=O)[C@H](CC(=O)O)NC(=O)[C@H](CC(C)C)NC(=O)C(C)(CC(C)C)NC(=O)[C@@H](NC(=O)[C@H](CO)NC(=O)[C@H](Cc1ccc(O)cc1)NC(=O)[C@H](CC(=O)O)NC(=O)[C@H](CO)NC(=O)[C@@H](NC(=O)[C@H](Cc1ccccc1)NC(=O)[C@@H](NC(=O)CNC(=O)[C@H](CCC(=O)O)NC(=O)C(C)(C)NC(=O)[C@@H](N)Cc1ccc(O)cc1)[C@@H](C)O)[C@@H](C)CC)[C@@H](C)CC)C(=O)N[C@@H](Cc1c[nH]cn1)C(=O)N[C@@H](CCC(N)=O)C(=O)NC(C)(C)C(=O)N[C@@H](CC(=O)O)C(=O)N[C@@H](Cc1ccccc1)C(=O)N[C@H](C(=O)N[C@@H](CCC(=O)O)C(=O)N[C@@H](Cc1ccc(O)cc1)C(=O)N[C@@H](CCCCNC(=O)COCCOCCNC(=O)COCCOCCNC(=O)CC[C@H](NC(=O)CCCCCCCCCCCCCCCCCCC(=O)O)C(=O)O)C(=O)N[C@@H](CC(C)C)C(=O)N[C@@H](CCC(=O)O)C(=O)NCC(=O)NCC(=O)N1CCC[C@H]1C(=O)N[C@@H](CO)C(=O)N[C@@H](CO)C(=O)NCC(=O)N[C@@H](C)C(=O)N1CCC[C@H]1C(=O)N1CCC[C@H]1C(=O)N1CCC[C@H]1C(=O)N[C@@H](CO)C(N)=O)C(C)C (stereo partly drawn),,,"human, type 2 diabetes","25 mg weekly, day 29, 4 weeks dosing",baseline: placebo,fasting glucose change,-2.2 mmol/L
CC[C@H](C)[C@@H]([C@@H](CC(=O)N1CCC[C@H]1[C@H](OC)[C@@H](C)C(=O)N[C@H](C)[C@@H](O)c1ccccc1)OC)N(C)C(=O)[C@@H](NC(=O)[C@H](C(C)C)N(C)C(=O)OCc1ccc(NC(=O)[C@H](CCCNC(N)=O)NC(=O)[C@@H](NC(=O)Cn2cc(CCC(=O)NCCC(=O)N(C)CC(=O)N(C)CC(=O)N(C)CC(=O)N(C)CC(=O)N(C)CC(=O)N(C)CC(=O)N(C)CC(=O)N(C)CC(=O)N(C)CC(=O)N(C)CC(=O)N[C@@H](C)C(=O)NC3CN(C)Cc4cc5cc(c4)CN(C)CC(C(N)=O)NC(=O)[C@H](C(C)(C)C)NC(=O)[C@H](CC(=O)O)NC(=O)[C@H](Cc4ccc(O)cc4)NC(=O)[C@H](Cc4ccccc4)NC(=O)[C@H](CC(=O)O)NC(=O)[C@H](CCC(=O)O)NC(=O)[C@H](CSC5)NC(=O)[C@@H](C)NC(=O)[C@H](Cc4cccc5ccccc45)NC(=O)[C@H](CCC(=O)O)NC(=O)[C@H](CC(N)=O)NC(=O)[C@@H](C)NC3=O)nn2)C(C)C)cc1)C(C)C (stereo partly drawn),,,"CD-1 mouse, plasma","intravenous, 3 mg/kg",,clearance,4.04 mL/min/kg
Cc1cc(/C=C/C#N)cc(C)c1-n1cnc2cnc(Nc3ccc(C#N)cc3)nc21,HIV-1,"viral replication, single-round infection",RT mutant V106A/L234I,,,EC50,0.4 ± 0.2 nM
Cc1oc2nc1C(=O)N[C@](C)(C(=O)NCCc1ccc(N3CCCCC3)cc1)c1nc(c(C)o1)C(=O)N[C@](C)(C(=O)NCCc1ccc(N3CCCCC3)cc1)c1nc(c(C)o1)C(=O)N[C@]2(C)C(=O)NCCc1ccc(N2CCCCC2)cc1,SARS-CoV-2,,"Vero E6, NRC-03-nhCoV",,baseline: CC50 over IC50,selectivity index,10.9
CC[C@H](C)[C@H](NC(=O)[C@H](CCCCN)NC(=O)[C@H](Cc1ccc(O)cc1)NC(=O)[C@H](CCC(N)=O)NC(=O)[C@H](Cc1c[nH]cn1)NC(=O)[C@@H](NC(=O)[C@H](Cc1ccccc1)NC(=O)[C@H](Cc1c[nH]cn1)NC(=O)[C@@H](NC(=O)[C@@H](NC(=O)CNC(=O)[C@H](CCCNC(=N)N)NC(=O)[C@H](Cc1c[nH]c2ccccc12)NC(=O)[C@H](CC(C)C)NC(=O)[C@H](CO)NC(=O)[C@H](CCC(=O)O)NC(=O)[C@H](CC(C)C)NC(=O)[C@H](CCC(=O)O)NC(=O)[C@H](CC(N)=O)NC(=O)[C@H](CC(C)C)NC(=O)[C@H](CC(=O)O)NC(=O)[C@H](CO)NC(=O)[C@H](CCC(=O)O)NC(=O)[C@@H](NC(=O)[C@H](CC(C)C)NC(=O)[C@H](CCC(N)=O)NC(=O)[C@H](CCC(=O)O)NC(=O)[C@H](CCC(=O)O)NC(=O)[C@H](CC(C)C)NC(=O)[C@@H]1CCCN1C(=O)[C@@H](N)Cc1ccccc1)[C@@H](C)O)[C@@H](C)O)[C@@H](C)O)C(C)C)C(=O)N[C@@H](CCSC)C(=O)N1CCC[C@H]1C(=O)N[C@@H](Cc1ccccc1)C(=O)N[C@@H](CCCNC(=N)N)C(=O)N[C@@H](CCCCN)C(=O)N[C@@H](CC(C)C)C(=O)N[C@H](C(=O)N[C@@H](Cc1ccccc1)C(=O)N[C@@H](CCCCN)C(=O)N[C@@H](CCCNC(=N)N)C(=O)N[C@@H](CCCNC(=N)N)C(=O)N[C@@H](CCCCN)C(=O)N[C@@H](CC(N)=O)C(N)=O)C(C)C,HEK293T,WST-8,,"up to 25 µg/mL, 24 h",baseline: water,viability,no effect
COCCCCCCN1CCn2cc(C(=O)NCc3ccc(F)cc3F)c(=O)c(O)c2C1=O,human immunodeficiency virus 1,single-round vector infection,integrase G140S/Q148H,,,EC50,123 ± 5.4 nM
Cc1cc(/C=C/C#N)cc(C)c1Nc1nc(Nc2ccc(C#N)cc2)ncc1N,HIV-1,"viral replication, single-round infection",RT mutant E138K/M184V,,,EC50,2.4 ± 0.2 nM
